Published values collected from several papers.
A part holds a random share of what one study measured.

Block 1
Target: Replicase polyprotein 1ab, polymerase (rep, Severe acute respiratory syndrome coronavirus 2, UniProt P0DTD1)
Observed: enzyme activity
Action: inhibitor
Concentration: 20 µM
Compound	inhibition [%]
O=C(Nc1cc(-c2ccccc2)nn1-c1ccccc1)c1ccc([N+](=O)[O-])cc1	1.28
CC1(N2CCC(n3c([C@@H]4CCCNC4)nc4ccccc43)CC2)CCCCCCC1	-2.55
O=C(O)CCCNC(=O)c1cccnc1	2.71
COc1ccn2ncc(-c3nc4[nH]nc(NC(=O)c5ccc(F)cc5)c4cc3F)c2c1	2.25
COC(=O)C(c1ccccc1)C1CCCCN1 (centres unmarked)	-1.26
O=C(O)c1cc(=O)c2c(Cl)cc(Cl)cc2[nH]1	6.55
Nc1ncnc2nc(-c3ccc(N4CCOCC4)nc3)cc(-c3cccc(Br)c3)c12	7.49
CC1=C(CC(=O)O)c2cc(F)ccc2/C1=C\c1ccc([S+](C)[O-])cc1 (centres unmarked)	29.4
CON(C)C(=O)N1N=C(c2cc(F)ccc2F)S[C@@]1(CCCN)c1ccccc1	-2.95
O=C(c1ccccc1)c1ccc2n1CCC2C(=O)O (centres unmarked)	3.41
CC1(C)NC(=O)N(c2ccc([N+](=O)[O-])c(C(F)(F)F)c2)C1=O	1.09
Cn1c(CNc2ccc(C(=N)N)cc2)nc2cc(C(=O)N(CCC(=O)O)c3ccccn3)ccc21	3.98
C[C@](O)(COc1ccc(C#N)cc1)C(=O)Nc1ccc(C#N)c(C(F)(F)F)c1	-4.84
Cc1ncc([N+](=O)[O-])n1C	2.93
O=C(O)Cc1sc(-c2ccccc2)nc1-c1ccc(Cl)cc1	15.6
O=C1CCC[C@@H]2[C@H]3CCC[N+]4([O-])CCC[C@@H](CN12)[C@@H]34 (some centres unmarked)	-4.39
COC(=O)CCc1ccc(OCC(O)CNC(C)C)cc1 (centres unmarked)	-4.5
CN(C)CC(=O)Nc1ccc2[nH]c(=O)c3ccccc3c2c1	-0.54
N=C(N)Nc1ccc(C(=O)Oc2ccc3cc(C(=N)N)ccc3c2)cc1	6.91
O=C(O)CCc1c[nH]c2ccccc12	-5.02
CCNC(=O)[C@@H]1CCCN1C(=O)[C@H](CCCN=C(N)N)NC(=O)[C@H](CC(C)C)NC(=O)[C@@H](C)NC(=O)[C@H](Cc1ccc(O)cc1)NC(=O)[C@H](CO)NC(=O)[C@H](Cc1c[nH]c2ccccc12)NC(=O)[C@H](Cc1cnc[nH]1)NC(=O)[C@@H]1CCC(=O)N1	-4
CC(C)N(CCC(C(N)=O)(c1ccccc1)c1ccccn1)C(C)C (centres unmarked)	94.2

Block 2
Cell line: HEK-293T
Observed: pseudovirus infection
Method: FDA-approved drug library screen
Organism: VSV pseudotyped with SARS-CoV-2 spike
Concentration: 10 µM
Time: 16 h
Relative to: vehicle-treated
SMILES	GFP-positive cells [%]
CCCC(C)(COC(N)=O)COC(=O)NC(C)C (centres unmarked)	78
CC1(C)S[C@@H]2[C@H](NC(=O)[C@H](N)c3ccc(O)cc3)C(=O)N2[C@H]1C(=O)O	83.6
CC1(C)C(C=C(Cl)Cl)C1C(=O)OCc1cccc(Oc2ccccc2)c1 (centres unmarked)	78.3

Block 3
Target: Replicase polyprotein 1ab, main protease (rep, Severe acute respiratory syndrome coronavirus 2, UniProt P0DTD1)
Observed: enzyme activity
Concentration: 20 µM
Notes: with DTT
SMILES	inhibition [%]
Oc1cc2c(cc1C(c1ccc(C(F)(F)F)cc1)N1CCOCC1)OCO2 (centres unmarked)	98.6
O=[N+]([O-])c1ccc(Sc2cccc[n+]2[O-])c2nonc12	100
O=C(NC(=S)N1CCCc2ccccc21)c1ccccc1	68.6

Block 4
Target: Centromere-binding protein 1, full length, His-tagged (CBF1, Saccharomyces cerevisiae, UniProt P17106, residues 1-351)
Chain of UniProt P17106 (whole entry, looked up): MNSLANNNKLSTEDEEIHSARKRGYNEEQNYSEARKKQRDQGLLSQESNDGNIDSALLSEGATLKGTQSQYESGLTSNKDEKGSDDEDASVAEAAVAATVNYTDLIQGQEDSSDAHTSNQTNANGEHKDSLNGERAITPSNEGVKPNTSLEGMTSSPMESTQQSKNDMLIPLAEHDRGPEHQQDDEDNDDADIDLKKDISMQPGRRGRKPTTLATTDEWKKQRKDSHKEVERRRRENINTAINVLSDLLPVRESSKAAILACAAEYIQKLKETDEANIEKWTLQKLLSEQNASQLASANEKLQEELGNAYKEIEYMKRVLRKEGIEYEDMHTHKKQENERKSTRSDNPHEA
Method: competition protein-binding microarray
Form: double-stranded DNA, one strand shown
Sample: in vitro
Concentration: 2 µM
Notes: whole 60-bp probe, lowest competitor level
With: Pho4 competitor, 0.05 µM
Reading: higher = stronger binding
All sequences stand within: … GTCTTGATTCGCTTGACGCTGCTG
Oligonucleotide	fluorescence intensity
CTTTCCCGATCTTGAGTTGTGGGTGTAGCACATTTG	86.4 a.u.
AAAGCGGTAATTTGCCCCGTGGGTGCAGATATCTAT	98.3 a.u.
TATAGTCAGCCTCAACATGTGGCTATGATGACCAGC	87.6 a.u.
CTTTCCCGATCTTGCGCTGTGGGTGTAGCACATTTG	88.2 a.u.
GGCTTGGATCTCAAAAGCGTGGGTAGCGTCGGCGCG	59.7 a.u.
AAATTACTAAGTTGTTGGGTGGGTGACGCCGTATGA	74.8 a.u.
CGTCCTAGTGATTGGGACGTGGGTGCCATGAGGAAG	74.6 a.u.
CAGGCATAGCCCCGTCACGTTCTACGATAAGAACTT	321 a.u.

Block 5
Target: RING finger protein unkempt homolog, zinc fingers 1-6, GST-SBP tag (UNK, Homo sapiens, UniProt Q9C0B0, residues 30-357)
Method: RNA Bind-n-Seq
Form: RNA
Sample: in vitro
Concentration: not given
Notes: RNA with constant flanks, ends assumed
Relative to: input RNA pool
Reading: higher = stronger binding
All sequences stand within: GGGAGUUCUACAGUCCGACGAUC … CAACAGAGGAUUGAGCAUCA
Construct (chain): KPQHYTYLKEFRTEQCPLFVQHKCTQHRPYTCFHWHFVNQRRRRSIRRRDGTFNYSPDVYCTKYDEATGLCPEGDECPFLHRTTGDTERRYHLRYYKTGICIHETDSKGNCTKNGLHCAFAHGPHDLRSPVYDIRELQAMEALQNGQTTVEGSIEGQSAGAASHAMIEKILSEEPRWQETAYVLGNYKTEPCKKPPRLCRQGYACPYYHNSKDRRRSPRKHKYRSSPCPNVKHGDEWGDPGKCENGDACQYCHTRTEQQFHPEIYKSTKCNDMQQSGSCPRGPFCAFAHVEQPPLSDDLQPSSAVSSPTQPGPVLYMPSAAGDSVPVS
Oligonucleotide	bound/input enrichment [ratio]
GCAUAAAUCCACCCCUGUUUGAAAUCUAUCAAGUCUUGUUAAGCCCAACACAACAUCAUGCCGCACUUAUAGGAAUAAAAGGACUUAUGGUAUUAGAAUUACCUAAAAGAUGGGGGAAGA	0.672
CUGUUGGAUGGAUUUCCAAGGACACUUCCACAGGCAGAAGCCCUGGAUAAAGUUUAUCAGACCGACACAGUGAUAAAUCUCAACGUGCCCUUUGAGGUCAUUAAACAGCGCCUUACUGCU	0.0865
AAUAAAGCUGUUGUGUUGCGGGGCCAUGAAUCUGAAGUUUUUAUCUGUGCCUGGAACCCUGUCCGUGAUCUCCUAGCAUCAGGGUCUGGAGACUCAACAGCAAGAAUAUGGAAUCUUAGU	0.357
ACAUCUGCAGAUAAAGUGGAGAGUCUGGAUGUGGAUAGUGAAGCUAAGAAACUAUUGGGUUCCGGACAGAAACAUCUGGUGAUGGGGGAUAUUCCAGCAGCUGUCAAUGCAUUCCAGGAA	0.215
AAAAUUUAUUUCAUGCCCUGGACUCCCUAUCGUACCGAUACUUUAAUAGAAUAUGCUUCUUCCGAAGAUUUCCAAAAUAGUCGCCAAACAACAACAUAUAAACUUCCAAAUCGAGUAGAU	6.68
GUGGUGACUUGGGAUUUUUAACCUUAUAUAUCUUUUUCCUUUACUCAAAACAAAACAAUUUUCCGCACACUGAAAAAAAAAAAAAGCCAAAUGUUUUGUGCCUUUCUAAGGCAGCACUGU	1.36
CCUUGGCACUGGCCUCCAGCAAGCCCUGUUCUCUUUGGGGUACAGGGGAACGGGAUGGUUCCGACUUUCCUGCUCAGUGUGUAAAAAAUGUAGCUAAAGCCACUAUUUUUGCUCUCCUUA	0.206
AGUCUGGUGAAUGAGACCACUCUGAUCAAAUACUCCAGGCUGCCAACCAUAAACAAGCACCGUUUCCGGUACUUUGUUUUGGAUAACAGUGUCAUCCUGGCAAUGCUGGAGCAACCGCUU	0.0289

Excerpt of the above (block 4):
Oligonucleotide	fluorescence intensity
CTTTCCCGATCTTGAGTTGTGGGTGTAGCACATTTG	86.4 a.u.
AAAGCGGTAATTTGCCCCGTGGGTGCAGATATCTAT	98.3 a.u.
TATAGTCAGCCTCAACATGTGGCTATGATGACCAGC	87.6 a.u.
CTTTCCCGATCTTGCGCTGTGGGTGTAGCACATTTG	88.2 a.u.
GGCTTGGATCTCAAAAGCGTGGGTAGCGTCGGCGCG	59.7 a.u.
AAATTACTAAGTTGTTGGGTGGGTGACGCCGTATGA	74.8 a.u.
CGTCCTAGTGATTGGGACGTGGGTGCCATGAGGAAG	74.6 a.u.
